Results pooled from the literature.
Protocols differ between the studies behind these lines.
Target: Alpha-glucosidase MAL12 (MAL12, Saccharomyces cerevisiae S288c, UniProt P53341)
Chain of UniProt P53341 (whole entry, looked up): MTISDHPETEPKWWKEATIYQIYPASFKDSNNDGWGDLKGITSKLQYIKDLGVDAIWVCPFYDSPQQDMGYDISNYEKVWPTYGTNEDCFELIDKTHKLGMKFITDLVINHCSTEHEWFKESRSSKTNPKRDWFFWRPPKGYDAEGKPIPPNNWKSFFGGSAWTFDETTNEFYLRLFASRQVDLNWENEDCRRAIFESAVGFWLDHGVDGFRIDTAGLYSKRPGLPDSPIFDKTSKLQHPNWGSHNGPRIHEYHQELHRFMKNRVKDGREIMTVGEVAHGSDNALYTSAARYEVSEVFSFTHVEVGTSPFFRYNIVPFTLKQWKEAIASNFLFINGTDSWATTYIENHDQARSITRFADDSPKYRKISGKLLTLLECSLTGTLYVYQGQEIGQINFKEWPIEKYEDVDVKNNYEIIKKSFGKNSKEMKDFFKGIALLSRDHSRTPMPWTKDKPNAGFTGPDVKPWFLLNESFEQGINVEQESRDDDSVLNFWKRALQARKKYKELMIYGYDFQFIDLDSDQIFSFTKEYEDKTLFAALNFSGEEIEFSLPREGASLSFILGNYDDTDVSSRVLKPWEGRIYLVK
Effect on: enzyme activity

SMILES	test	setting	inhibition
COc1c(-c2cccc(O)c2)oc2c(OC)c(O)cc(O)c2c1=O	p-nitrophenyl glucoside substrate	10 µM, series 250 to 10 µM	> 50%
O=C1C(=O)N(CCOc2ccc(F)cc2)c2ccc(Cl)cc21	inhibitor	500 µM, pH 6.8	91.6%
COc1cc(-c2oc3cc(O)cc(O)c3c(=O)c2OC)ccc1O	inhibitor, absorbance	50 µM	94.9%
O=C(CN1C(C(=O)c2ccccc2)=C(O)c2ccccc2S1(=O)=O)Nc1ccccc1Br	inhibitor, absorbance	500 µM	69.4%
O=C1C(=O)N(CCOc2ccccc2)c2ccccc21	inhibitor	500 µM, pH 6.8	85%
Cc1cccc(/C=C/C(=O)c2cnn(-c3ccccc3)c2C)c1	inhibitor	140 µM	17.5%
COc1ccc(-c2c(C(F)(F)F)oc3c(Cn4cnc5ccccc54)c(O)ccc3c2=O)cc1	inhibitor	25 µM, pH 6.8	79.6%
O=C1C(=O)N(CCOc2ccc(Br)cc2)c2ccc(Br)cc21	inhibitor	500 µM, pH 6.8	93.3%
COc1cc(O)c2c(=O)c(OC)c(-c3ccc(O)c(O)c3)oc2c1	inhibitor, absorbance	250 µM	86.4%
COc1ccc(-c2c(C(F)(F)F)oc3c(Cn4ccnc4)c(O)ccc3c2=O)cc1	inhibitor	25 µM, pH 6.8	73.7%

A few entries again:
SMILES	test	setting	inhibition
O=C1C(=O)N(CCOc2ccc(Br)cc2)c2ccc(Br)cc21	inhibitor	500 µM, pH 6.8	93.3%
COc1ccc(-c2c(C(F)(F)F)oc3c(Cn4cnc5ccccc54)c(O)ccc3c2=O)cc1	inhibitor	25 µM, pH 6.8	79.6%
